# Values quoted from earlier work that unrelated publications cite.
# Compare with care: the assays were run in different laboratories. ± marks the error that the study gave.
# Target: acetylcholinesterase
SMILES,test,system,conditions,measurement,value
C[C@H]1CC[C@@H]2[C@@H](C)[C@H]3[C@H](C[C@H]4[C@@H]5CC=C6C[C@@H](O)CC[C@]6(C)[C@H]5CC[C@]34C)N2C1,,,5 µM,inhibition,10%
O=c1c(-c2ccc(O)cc2)coc2cc(O)cc(O)c12,enzyme activity,,,IC50,> 100 µM
O=C(O)COc1ccc(C2CC(c3c[nH]c4ccccc34)=NN2C(=O)c2ccccc2)cc1 (stereo not shown),inhibitor,,,IC50,13.8 ± 0.25 µM
CCN(CC)CCNC(=O)c1ccc(CN2CCc3ccccc3C2)cc1,inhibitor,,,IC50,> 50 µM
O=C(/C=C/c1ccc(OCCN2CCNCC2)cc1)c1ccccc1,"enzyme activity, inhibitor",,,IC50,0.0153 µM
Cc1ccccc1NC(=O)CN1CCN(C2=CC(=O)Cc3ccccc32)CC1,"enzyme activity, inhibitor",,,IC50,8.3 ± 0.04 µM
CCOP(=O)(OCC)Oc1cc(C)nc(C(C)C)n1,"enzyme activity, inhibitor",thymus tissue,20 min,IC30,0.04 µM
Clc1ccc(-c2nnc(-c3cncc(-c4ccccc4)c3)o2)cc1,inhibitor,,,IC50,0.0509 µM
O=C1/C(=C/c2ccc(F)cc2)CN(C(=O)C2CC3CCCN3C23C(=O)Nc2ccccc23)C/C1=C\c1ccc(F)cc1 (stereo not shown),inhibitor,,,IC50,2.35 µM
CN(C)c1ccc(/C=C/C(=O)c2ccc(OC(=O)N3CCCC3)cc2O)cc1,"enzyme activity, inhibitor",,,IC50,4.91 µM

# Repeated from above:
SMILES,test,system,conditions,measurement,value
C[C@H]1CC[C@@H]2[C@@H](C)[C@H]3[C@H](C[C@H]4[C@@H]5CC=C6C[C@@H](O)CC[C@]6(C)[C@H]5CC[C@]34C)N2C1,,,5 µM,inhibition,10%
